Experimental data pooled from the literature.
Numbered parts are unrelated; each lists some results of a single study.

Sample 1 — technique: protein-binding microarray; molecule type: double-stranded DNA, one strand shown; medium: in vitro; concentration: 2200 nM top; notes: 60-bp whole probe; added: salmon DNA 0.4 mg/ml; relative to: random background probes; reading: higher = stronger binding; endpoint: fitted relative affinity
Target: Interferon regulatory factor 7, full length, phosphomimetic (IRF7, Homo sapiens, UniProt Q92985, residues 1-503, S471D/S472D/S475D/S476D/S477D/S483D/S484D/S487D)
UniProt Q92985, sequence (whole entry, unmodified, looked up): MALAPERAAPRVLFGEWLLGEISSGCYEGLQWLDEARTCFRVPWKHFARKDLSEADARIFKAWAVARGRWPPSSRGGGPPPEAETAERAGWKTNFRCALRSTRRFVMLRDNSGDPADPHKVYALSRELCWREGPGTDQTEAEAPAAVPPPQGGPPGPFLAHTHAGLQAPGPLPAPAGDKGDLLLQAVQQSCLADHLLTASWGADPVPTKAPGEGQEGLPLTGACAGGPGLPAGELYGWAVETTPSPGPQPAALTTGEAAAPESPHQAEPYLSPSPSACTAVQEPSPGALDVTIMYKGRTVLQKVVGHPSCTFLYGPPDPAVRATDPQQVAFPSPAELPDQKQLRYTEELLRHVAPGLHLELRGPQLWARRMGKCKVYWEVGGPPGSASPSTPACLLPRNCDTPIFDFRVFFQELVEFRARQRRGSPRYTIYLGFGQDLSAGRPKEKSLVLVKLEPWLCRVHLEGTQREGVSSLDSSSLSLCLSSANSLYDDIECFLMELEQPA
GCCTAGCACTTAGGTCTCAGACTGGATTAGTGCTAGGTCTTGATTCGCTTGACGCTGCTG: -0.409 z-score
GCCTAGCACGAAGGTATCGGGACTGGGGACGTGCTAGTCTTGATTCGCTTGACGCTGCTG: -0.588 z-score
GCCTAGCACTTAGATATGGGGACTGGATTAGTGCTAGTCTTGATTCGCTTGACGCTGCTG: -0.156 z-score

Sample 2 — technique: universal PBM; molecule type: double-stranded DNA, one strand shown; medium: in vitro; concentration: not given; reading: higher = stronger binding; endpoint: E-score
Target: Sal-like protein 4, full length isoform B (SALL4, Homo sapiens, UniProt Q9UJQ4-2, residues 1-616)
Notes: 8-mer, flanks averaged, mean of replicates
AGGTAATA: 0.291
CGTTCGAG: -0.145
GGCTGCAC: -0.276
AGCGGGTA: -0.122

Sample 3 — technique: protein binding microarray; molecule type: double-stranded DNA, one strand shown; medium: in vitro; concentration: not given; relative to: not given; reading: higher = stronger binding; endpoint: E-score
Target: Histone acetyltransferase KAT6A, winged helix 2, GST fusion (KAT6A, Homo sapiens, UniProt Q92794, residues 85-181)
Notes: 8-mer, flanks averaged, mean of 2 arrays, mostly near background
Construct (chain): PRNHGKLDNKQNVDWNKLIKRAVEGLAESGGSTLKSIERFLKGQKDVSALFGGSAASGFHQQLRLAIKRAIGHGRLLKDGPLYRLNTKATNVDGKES
GACATGTA: -0.142
ATTCTTTG: -0.0483
GCTATAAC: -0.171
GAGAATCC: 0.158

Mixed results
PhoQ, residues 284 288 289 292 302 303 SVTLVV  fold induction (PhoP, residues 12 14 15 18 19 SGWQI (Escherichia coli, UniProt P23836); Sort-seq, refers to: YFP reporter; E. coli; PhoQ-PhoP variant library, added: 10 µM Mg2+; relative to: high Mg2+ state, higher = stronger signaling): 8.66

Excerpt of the above (sample 3):
GAGAATCC: 0.158
GACATGTA: -0.142
